Measured values from different studies.
Every numbered part comes from another study and shows a few of its results, in no order.
UniProt P10721, sequence (whole entry, unmodified, looked up): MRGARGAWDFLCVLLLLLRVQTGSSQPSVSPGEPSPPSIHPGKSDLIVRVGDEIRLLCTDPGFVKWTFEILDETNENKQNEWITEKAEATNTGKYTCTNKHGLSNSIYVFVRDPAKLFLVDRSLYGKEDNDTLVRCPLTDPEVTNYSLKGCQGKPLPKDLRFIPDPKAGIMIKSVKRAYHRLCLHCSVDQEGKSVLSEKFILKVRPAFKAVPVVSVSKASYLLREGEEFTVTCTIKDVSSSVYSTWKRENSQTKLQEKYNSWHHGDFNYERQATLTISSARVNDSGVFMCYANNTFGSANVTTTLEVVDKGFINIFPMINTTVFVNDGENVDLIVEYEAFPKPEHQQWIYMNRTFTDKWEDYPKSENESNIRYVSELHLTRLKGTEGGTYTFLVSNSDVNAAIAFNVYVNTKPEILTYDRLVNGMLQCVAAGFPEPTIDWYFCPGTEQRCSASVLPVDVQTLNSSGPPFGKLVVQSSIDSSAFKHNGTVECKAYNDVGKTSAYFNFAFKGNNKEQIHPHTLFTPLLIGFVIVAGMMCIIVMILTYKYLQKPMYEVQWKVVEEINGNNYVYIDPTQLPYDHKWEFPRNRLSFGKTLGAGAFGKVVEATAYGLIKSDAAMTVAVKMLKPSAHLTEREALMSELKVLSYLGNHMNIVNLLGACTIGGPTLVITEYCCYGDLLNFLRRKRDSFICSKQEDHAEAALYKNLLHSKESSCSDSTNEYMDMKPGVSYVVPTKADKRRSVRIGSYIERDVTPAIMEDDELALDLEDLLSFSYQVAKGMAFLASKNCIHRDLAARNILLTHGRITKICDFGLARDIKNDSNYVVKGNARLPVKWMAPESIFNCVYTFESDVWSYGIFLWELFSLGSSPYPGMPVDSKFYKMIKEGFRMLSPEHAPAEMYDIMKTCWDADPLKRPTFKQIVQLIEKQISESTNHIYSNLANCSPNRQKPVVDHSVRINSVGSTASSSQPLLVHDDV
UniProt P42336, sequence (whole entry, unmodified, looked up): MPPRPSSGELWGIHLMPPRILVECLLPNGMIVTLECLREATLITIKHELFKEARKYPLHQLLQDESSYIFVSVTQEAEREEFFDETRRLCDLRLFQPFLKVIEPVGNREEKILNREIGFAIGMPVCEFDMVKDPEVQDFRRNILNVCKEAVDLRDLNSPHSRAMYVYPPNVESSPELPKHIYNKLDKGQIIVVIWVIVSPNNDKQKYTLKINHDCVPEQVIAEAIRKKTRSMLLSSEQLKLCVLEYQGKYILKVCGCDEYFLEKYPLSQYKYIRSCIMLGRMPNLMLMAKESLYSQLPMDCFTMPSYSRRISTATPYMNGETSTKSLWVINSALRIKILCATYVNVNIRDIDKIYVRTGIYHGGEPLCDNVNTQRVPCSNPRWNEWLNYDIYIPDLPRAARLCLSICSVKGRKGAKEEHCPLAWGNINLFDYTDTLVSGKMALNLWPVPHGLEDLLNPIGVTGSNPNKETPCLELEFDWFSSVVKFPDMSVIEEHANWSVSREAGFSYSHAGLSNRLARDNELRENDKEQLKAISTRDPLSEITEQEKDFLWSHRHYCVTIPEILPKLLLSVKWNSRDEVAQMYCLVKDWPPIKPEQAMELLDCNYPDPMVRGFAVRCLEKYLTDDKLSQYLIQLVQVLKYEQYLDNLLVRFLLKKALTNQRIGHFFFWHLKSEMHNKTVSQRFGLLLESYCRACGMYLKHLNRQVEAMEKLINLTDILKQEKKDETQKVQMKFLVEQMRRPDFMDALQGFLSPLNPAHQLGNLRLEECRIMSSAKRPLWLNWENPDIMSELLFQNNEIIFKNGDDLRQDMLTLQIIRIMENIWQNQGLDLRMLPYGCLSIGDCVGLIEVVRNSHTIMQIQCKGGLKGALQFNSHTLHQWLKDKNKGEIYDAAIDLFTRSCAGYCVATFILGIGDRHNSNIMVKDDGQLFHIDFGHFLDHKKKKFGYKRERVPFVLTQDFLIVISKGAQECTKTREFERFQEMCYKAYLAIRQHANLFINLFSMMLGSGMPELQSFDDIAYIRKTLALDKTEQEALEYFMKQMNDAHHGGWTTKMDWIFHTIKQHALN
UniProt P00519, sequence (whole entry, looked up): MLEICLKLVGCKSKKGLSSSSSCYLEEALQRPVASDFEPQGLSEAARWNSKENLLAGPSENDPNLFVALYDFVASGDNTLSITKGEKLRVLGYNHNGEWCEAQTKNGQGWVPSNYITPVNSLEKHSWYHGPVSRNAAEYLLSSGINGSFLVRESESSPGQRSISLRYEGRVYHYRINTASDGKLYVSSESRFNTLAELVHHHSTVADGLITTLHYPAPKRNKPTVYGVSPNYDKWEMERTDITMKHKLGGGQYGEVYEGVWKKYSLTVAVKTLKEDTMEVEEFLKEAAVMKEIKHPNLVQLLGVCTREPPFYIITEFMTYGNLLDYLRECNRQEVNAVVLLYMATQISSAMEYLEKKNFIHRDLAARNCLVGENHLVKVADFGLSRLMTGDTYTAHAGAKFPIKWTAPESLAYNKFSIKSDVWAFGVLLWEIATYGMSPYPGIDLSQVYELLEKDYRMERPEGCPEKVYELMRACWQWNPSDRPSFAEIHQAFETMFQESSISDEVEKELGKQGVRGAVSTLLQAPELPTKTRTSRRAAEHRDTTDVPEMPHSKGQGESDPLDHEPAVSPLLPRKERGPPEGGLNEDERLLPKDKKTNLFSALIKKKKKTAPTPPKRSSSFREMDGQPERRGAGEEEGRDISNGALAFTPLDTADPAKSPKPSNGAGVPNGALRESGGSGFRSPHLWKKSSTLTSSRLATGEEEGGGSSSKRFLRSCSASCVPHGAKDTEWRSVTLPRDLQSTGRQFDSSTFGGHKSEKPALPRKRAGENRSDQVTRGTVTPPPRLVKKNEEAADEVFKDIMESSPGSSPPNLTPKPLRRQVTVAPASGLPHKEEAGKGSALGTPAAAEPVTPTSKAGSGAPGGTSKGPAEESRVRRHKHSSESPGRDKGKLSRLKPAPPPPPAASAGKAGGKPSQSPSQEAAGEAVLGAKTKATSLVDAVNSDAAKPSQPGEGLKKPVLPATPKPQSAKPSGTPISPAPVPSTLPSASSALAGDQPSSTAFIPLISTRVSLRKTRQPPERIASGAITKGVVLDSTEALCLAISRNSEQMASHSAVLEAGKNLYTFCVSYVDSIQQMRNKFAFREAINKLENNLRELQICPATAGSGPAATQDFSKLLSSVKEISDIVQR
UniProt Q05655, sequence (whole entry, looked up): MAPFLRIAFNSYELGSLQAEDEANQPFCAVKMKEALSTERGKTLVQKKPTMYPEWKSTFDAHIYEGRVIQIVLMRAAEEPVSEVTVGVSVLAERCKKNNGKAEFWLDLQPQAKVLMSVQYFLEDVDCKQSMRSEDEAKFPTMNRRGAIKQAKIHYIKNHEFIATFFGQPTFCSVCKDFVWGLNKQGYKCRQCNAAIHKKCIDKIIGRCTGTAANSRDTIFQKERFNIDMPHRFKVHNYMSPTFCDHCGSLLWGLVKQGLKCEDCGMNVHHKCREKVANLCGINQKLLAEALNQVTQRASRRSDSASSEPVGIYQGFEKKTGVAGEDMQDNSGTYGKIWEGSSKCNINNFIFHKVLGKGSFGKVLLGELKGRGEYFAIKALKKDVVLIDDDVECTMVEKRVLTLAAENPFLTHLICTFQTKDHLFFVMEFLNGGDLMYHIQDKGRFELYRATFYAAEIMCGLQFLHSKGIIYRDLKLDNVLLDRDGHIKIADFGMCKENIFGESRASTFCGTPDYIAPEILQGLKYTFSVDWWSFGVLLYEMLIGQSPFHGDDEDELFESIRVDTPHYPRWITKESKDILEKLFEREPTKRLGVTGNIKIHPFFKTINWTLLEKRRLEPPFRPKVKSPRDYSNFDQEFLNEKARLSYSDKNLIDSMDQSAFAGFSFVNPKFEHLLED

Set 1 — species: mouse; sample: microsomes or S9; concentration: 2 µM; time: 0.5 h; quantity: remaining compound
SMILES = O=C(O)C1C[S+]([O-])C2c3ccccc3C(=O)N12 (stereo not shown); value = 36.1%
SMILES = COc1cc(=O)[nH]cc1C(=O)N[C@@H]1CCO[C@H]1c1ccc(Cl)cc1; value = 51.9%
SMILES = Cc1sc2c(c1C)c1nnc(SCCN(C)C)n1c1nnc(SCCN(C)C)n21; value = 58.3%

Set 2 — read-out: cell-free assay; method: competition with immobilised ligand; concentration: 1 µM; quantity: remaining binding
SMILES: C[C@H](NC(=O)c1cnc2n1[C@](C)(Cc1ccc(C#N)cc1)C(=O)N2c1cc(Cl)c(F)c(Cl)c1)C(=O)NC1(c2ccccn2)CC1
target = MAP3K11 (Homo sapiens, UniProt Q16584); value = 100%
target = PRKCD (Homo sapiens, UniProt Q05655); value = 100%
target = STK38 (Homo sapiens, UniProt Q15208); value = 96%
target = CLK4 (Homo sapiens, UniProt Q9HAZ1); value = 88%
target = DYRK1A (Homo sapiens, UniProt Q13627); value = 100%
target = STK3 (Homo sapiens, UniProt Q13188); value = 100%
target = CDKL5 (Homo sapiens, UniProt O76039); value = 100%
target = KIT (Homo sapiens, UniProt P10721); value = 91%
target = Tyrosine-protein kinase ABL1, non-phosphorylated (ABL1, Homo sapiens, UniProt P00519); value = 99%
target = RIPK1 (Homo sapiens, UniProt Q13546); value = 100%
target = SRMS (Homo sapiens, UniProt Q9H3Y6); value = 100%
target = KIT (Homo sapiens, UniProt P10721, T670I/V559D); value = 100%
target = PIK3CA (Homo sapiens, UniProt P42336, H1047Y); value = 100%
target = KIT (Homo sapiens, UniProt P10721, A829P); value = 100%

Set 3 — method: universal PBM; molecule type: double-stranded DNA, one strand shown; sample: in vitro; concentration: 600 nM; reading: higher = stronger binding; quantity: E-score
Target: Sal-like protein 4, full length isoform A (SALL4, Homo sapiens, UniProt Q9UJQ4, residues 1-1053)
UniProt Q9UJQ4, sequence (whole entry, looked up): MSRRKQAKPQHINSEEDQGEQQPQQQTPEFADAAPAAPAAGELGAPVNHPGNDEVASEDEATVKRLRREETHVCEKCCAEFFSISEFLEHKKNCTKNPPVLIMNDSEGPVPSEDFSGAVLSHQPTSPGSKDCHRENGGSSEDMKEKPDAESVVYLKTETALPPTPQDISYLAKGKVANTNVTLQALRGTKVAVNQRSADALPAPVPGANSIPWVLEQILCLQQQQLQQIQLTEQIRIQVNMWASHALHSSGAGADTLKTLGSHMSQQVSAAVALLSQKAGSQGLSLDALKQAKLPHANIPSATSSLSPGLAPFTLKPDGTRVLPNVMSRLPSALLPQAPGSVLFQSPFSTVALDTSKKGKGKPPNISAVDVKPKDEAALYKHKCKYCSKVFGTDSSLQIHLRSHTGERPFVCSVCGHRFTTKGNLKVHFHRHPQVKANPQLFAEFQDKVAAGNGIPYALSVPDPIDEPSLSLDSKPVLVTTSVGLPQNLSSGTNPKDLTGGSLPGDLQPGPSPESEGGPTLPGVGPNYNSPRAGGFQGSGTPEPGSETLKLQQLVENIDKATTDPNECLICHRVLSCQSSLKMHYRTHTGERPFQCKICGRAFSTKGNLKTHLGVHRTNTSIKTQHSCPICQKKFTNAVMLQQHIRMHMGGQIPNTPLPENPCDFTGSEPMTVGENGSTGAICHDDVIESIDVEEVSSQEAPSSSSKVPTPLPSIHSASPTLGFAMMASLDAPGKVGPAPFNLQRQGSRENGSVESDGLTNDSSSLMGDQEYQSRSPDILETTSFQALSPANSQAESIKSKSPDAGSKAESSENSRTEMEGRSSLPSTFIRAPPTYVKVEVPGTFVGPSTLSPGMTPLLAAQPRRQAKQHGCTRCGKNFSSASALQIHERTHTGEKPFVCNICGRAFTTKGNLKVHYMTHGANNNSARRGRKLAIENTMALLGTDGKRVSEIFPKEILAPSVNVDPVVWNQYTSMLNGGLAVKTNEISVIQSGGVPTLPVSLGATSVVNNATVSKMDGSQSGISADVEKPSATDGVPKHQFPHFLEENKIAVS
Notes: 8-mer, flanks averaged, mean of replicates
Strand = AAATCGGA; value = 0.128
Strand = AAGCCCTA; value = 0.0652
Strand = GTTTGAAA; value = 0.215
Strand = GCCAAGGA; value = -0.117
Strand = AGGGATAG; value = -0.0141
Strand = GAGGCTTA; value = -0.0371
Strand = ATGGAAAT; value = 0.263
Strand = ACGTTAGG; value = 0.0528

Further values, each from its own experiment — cell line: A-375; concentration: 100 µM; time: 18 h
SMILES = COC(=O)N[C@H](C(=O)N1CCC[C@H]1c1nc(-c2ccc(-c3ccc(-c4c[nH]c([C@@H]5CCCN5C(=O)[C@@H](NC(=O)OC)C(C)C)n4)cc3)cc2)c[nH]1)C(C)C; viability = 20.6%
SMILES = O=c1oc2cc(O)ccc2s1; viability = 102%
SMILES = C[C@H]1CN(C[C@H](Cc2ccccc2)C(=O)NCC(=O)O)CC[C@@]1(C)c1cccc(O)c1; viability = 103%

Repeated from above (set 1):
SMILES = COc1cc(=O)[nH]cc1C(=O)N[C@@H]1CCO[C@H]1c1ccc(Cl)cc1; value = 51.9%
SMILES = Cc1sc2c(c1C)c1nnc(SCCN(C)C)n1c1nnc(SCCN(C)C)n21; value = 58.3%
